# Assay results of several laboratories.
# Compare with care: the assays were run in different laboratories.
# UniProt Q9UKI8, sequence (whole entry, looked up): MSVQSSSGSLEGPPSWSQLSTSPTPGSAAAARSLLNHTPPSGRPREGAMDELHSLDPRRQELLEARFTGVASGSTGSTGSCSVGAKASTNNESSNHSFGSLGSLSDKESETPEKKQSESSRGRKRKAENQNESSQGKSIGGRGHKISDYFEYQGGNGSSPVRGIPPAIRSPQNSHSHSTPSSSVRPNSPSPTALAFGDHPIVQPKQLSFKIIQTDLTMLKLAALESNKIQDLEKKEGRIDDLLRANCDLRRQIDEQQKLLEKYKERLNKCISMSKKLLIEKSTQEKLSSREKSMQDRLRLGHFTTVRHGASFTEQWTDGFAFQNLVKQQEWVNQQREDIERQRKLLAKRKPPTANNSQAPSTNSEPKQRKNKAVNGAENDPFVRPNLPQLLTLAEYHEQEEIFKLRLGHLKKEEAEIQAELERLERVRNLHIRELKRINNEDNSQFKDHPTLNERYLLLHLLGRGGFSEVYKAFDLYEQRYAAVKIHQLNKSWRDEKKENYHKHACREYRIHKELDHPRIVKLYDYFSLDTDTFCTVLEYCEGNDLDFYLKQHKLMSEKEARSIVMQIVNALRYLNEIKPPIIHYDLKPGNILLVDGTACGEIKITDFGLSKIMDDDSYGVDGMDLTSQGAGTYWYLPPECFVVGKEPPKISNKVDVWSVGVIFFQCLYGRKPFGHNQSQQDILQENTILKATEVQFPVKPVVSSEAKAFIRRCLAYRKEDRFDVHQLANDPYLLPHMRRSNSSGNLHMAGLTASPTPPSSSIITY
# UniProt O95983, sequence (whole entry, looked up): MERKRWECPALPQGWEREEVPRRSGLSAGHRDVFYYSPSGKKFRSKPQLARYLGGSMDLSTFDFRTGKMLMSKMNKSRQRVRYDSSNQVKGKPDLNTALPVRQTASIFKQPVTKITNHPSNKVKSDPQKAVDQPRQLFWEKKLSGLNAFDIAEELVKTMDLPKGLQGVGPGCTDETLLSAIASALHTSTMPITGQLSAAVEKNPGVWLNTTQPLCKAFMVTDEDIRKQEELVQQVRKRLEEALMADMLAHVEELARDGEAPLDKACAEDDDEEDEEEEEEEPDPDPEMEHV
# UniProt P23439, sequence (whole entry, looked up): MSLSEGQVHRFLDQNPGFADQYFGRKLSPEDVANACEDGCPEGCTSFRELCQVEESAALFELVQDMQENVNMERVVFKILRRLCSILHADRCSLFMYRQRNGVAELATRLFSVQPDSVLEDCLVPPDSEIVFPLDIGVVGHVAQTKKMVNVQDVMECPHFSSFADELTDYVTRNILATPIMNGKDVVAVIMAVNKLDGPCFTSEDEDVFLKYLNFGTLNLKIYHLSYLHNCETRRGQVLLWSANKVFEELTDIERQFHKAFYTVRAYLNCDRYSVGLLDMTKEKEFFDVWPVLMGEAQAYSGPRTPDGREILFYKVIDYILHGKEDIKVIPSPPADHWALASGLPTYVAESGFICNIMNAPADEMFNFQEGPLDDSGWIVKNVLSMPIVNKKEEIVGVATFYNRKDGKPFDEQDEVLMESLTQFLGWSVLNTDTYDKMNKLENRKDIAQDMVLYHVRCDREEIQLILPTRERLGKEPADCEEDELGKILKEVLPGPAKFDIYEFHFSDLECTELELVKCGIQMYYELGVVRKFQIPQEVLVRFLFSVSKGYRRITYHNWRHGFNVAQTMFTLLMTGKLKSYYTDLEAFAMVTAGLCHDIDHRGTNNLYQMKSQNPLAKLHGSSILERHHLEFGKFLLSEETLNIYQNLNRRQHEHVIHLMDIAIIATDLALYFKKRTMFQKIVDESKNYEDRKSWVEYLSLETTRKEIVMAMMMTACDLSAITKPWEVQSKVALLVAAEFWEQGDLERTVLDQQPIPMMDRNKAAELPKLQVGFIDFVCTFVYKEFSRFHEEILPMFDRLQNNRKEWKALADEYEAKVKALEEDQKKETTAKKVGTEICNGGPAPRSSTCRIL
# UniProt P47775, sequence (whole entry, looked up): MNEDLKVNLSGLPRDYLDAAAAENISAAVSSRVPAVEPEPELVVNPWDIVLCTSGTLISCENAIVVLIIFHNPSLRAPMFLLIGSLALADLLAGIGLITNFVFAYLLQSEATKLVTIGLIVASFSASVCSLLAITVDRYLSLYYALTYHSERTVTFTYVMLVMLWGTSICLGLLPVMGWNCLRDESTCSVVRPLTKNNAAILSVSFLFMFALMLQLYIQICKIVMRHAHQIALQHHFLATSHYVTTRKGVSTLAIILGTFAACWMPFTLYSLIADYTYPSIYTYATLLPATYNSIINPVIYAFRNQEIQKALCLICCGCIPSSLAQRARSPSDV
# UniProt Q4J6C6, sequence (whole entry, looked up): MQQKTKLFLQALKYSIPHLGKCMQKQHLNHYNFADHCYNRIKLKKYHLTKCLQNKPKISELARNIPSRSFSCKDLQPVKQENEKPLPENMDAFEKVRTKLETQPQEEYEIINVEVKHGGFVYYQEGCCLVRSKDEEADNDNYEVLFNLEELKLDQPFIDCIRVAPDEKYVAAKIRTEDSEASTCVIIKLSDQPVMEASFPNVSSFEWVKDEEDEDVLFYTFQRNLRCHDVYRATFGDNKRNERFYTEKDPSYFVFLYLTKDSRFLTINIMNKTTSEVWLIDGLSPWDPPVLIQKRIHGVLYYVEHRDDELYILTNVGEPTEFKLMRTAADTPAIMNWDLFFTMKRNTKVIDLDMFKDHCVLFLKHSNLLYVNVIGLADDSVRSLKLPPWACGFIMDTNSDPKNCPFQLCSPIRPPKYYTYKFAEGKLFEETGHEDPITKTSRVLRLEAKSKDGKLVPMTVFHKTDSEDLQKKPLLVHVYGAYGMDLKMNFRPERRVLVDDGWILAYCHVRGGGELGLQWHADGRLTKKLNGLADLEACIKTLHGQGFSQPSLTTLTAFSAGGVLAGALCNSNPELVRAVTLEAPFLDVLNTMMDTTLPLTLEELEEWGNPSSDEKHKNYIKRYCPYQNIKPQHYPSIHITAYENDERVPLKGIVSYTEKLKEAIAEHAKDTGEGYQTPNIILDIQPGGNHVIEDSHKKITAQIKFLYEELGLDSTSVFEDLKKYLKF
# UniProt Q9Y6M4, sequence (whole entry, looked up): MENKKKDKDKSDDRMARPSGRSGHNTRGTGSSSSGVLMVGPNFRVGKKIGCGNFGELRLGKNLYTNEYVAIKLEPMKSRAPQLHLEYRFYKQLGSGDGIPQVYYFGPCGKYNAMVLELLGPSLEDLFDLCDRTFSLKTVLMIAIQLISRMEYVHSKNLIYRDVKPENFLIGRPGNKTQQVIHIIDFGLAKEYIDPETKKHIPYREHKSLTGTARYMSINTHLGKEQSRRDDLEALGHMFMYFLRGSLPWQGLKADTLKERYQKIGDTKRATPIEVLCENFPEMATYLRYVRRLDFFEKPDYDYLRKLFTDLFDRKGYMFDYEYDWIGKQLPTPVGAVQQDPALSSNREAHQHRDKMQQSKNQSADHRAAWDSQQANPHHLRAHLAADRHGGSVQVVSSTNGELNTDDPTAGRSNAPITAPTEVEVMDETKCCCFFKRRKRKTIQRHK
# UniProt Q9HB89, sequence (whole entry, looked up): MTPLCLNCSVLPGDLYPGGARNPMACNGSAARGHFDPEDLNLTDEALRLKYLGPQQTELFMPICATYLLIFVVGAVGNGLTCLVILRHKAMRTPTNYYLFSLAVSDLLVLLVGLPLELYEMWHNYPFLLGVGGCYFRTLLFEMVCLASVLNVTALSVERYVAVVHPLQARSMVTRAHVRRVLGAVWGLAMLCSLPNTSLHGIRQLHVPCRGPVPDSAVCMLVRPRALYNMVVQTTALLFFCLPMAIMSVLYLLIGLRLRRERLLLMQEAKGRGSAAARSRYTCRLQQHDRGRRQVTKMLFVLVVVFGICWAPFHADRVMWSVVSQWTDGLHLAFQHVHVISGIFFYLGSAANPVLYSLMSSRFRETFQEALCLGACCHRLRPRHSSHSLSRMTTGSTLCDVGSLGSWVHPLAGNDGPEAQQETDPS
# UniProt Q13304, sequence (whole entry, looked up): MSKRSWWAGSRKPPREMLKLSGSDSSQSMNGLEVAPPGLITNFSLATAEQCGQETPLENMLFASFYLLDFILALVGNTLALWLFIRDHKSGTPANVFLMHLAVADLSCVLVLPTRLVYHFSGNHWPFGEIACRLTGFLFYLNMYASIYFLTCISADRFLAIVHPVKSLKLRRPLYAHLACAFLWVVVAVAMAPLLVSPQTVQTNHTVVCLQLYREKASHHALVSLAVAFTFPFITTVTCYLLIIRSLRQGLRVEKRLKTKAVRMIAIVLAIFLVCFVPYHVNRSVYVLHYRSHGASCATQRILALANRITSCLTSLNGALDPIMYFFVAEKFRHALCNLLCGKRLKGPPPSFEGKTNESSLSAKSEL
SMILES,target or system,test,system,setting,how to read,endpoint,result
Oc1ccc2c3c1O[C@H]1[C@@H](O)CC[C@@]4(O)[C@@H](C2)N(CC2CCC2)CC[C@]314,"GPR17 (Homo sapiens, UniProt Q13304)","β-arrestin recruitment, TANGO luminescence",,concentration not given,reference: basal luminescence,log2 fold change,-0.006
C[C@H]1CN(c2n[nH]c3nc(N[C@H]4CC[C@H](NS(=O)(=O)CCC(F)(F)F)CC4)ncc23)CCO1,"Methyl-CpG-binding domain protein 3 (MBD3, Homo sapiens, UniProt O95983)","Kinobeads competition, measured: MBD3",,"0.8 µM, unit not given",reference: vehicle,remaining binding,1.24
[2H]c1c([2H])c([C@]2([2H])CCCN2C(=O)C(C)(C)Oc2ccc3cn[nH]c3c2)c([2H])c([2H])c1C([2H])([2H])[2H],"TLK1 (Homo sapiens, UniProt Q9UKI8)",KINOMEscan,,1 µM,reference: DMSO control,remaining binding,67%
CN1CCN(c2cc(-c3ccncc3)c(-c3ccc4ccccc4c3)nn2)CC1,"NMUR1 (Homo sapiens, UniProt Q9HB89)","antagonist, FLIPR",,10 µM,,inhibition,0.5%
COc1cc(Nc2ncc(F)c(Nc3ccc4c(n3)NC(=O)C(C)(C)O4)n2)cc(OC)c1OC,"PDE6A/PDE6B (Bos taurus, UniProt P11541+P23439)",,,,,IC50,> 10 µM
CC[C@H](C)[C@@H]1NC(=O)[C@@H]2CCCN2C(=O)[C@H](CC(C)C)NC(=O)[C@H](CC(C)C)NC(=O)CNC(=O)[C@@H](NC(=O)[C@@H](NC(=O)[C@H](CC(=O)O)NC(=O)CNC(=O)[C@@H](NC(=O)[C@H](C)NC(=O)CNC(=O)[C@H](CCCCN)NC(=O)[C@H](CC(C)C)NC(=O)[C@H](CC(C)C)NC(=O)[C@H](CCCCN)NC(=O)CNC(=O)[C@@H](NC(=O)[C@@H](N)CC(C)C)C(C)C)C(C)C)C(C)C)CSSC[C@@H](C(=O)O)NC1=O,,"RNA-seq, measured: Rd3","mouse, traumatic brain injury model, frontal cortex and hippocampus",dose not given,reference: TBI alone,log2 fold change,-2.26
COc1cc(N)c(Cl)cc1C(=O)NC1CN2CCC1CC2 (stereo not drawn),"G-protein coupled receptor 12 (GPR12, Homo sapiens, UniProt P47775)","β-arrestin recruitment, TANGO luminescence, measured: GPR12",,concentration not given,reference: basal luminescence,log2 fold change,0.035
COc1cc2c(Oc3ccc4[nH]c(C)cc4c3F)ccnc2cc1OCC1(N)CC1,,,paediatric recurrent refractory sarcoma,12 mg,,grade 1 or 2 Thrombocytopenia,18.2%
CNC1(c2ccccc2Cl)CCCCC1=O (racemic),P2X receptor,"radioligand binding, agonist, radioligand displacement",,30 µM,,inhibition,-6%
COc1ccc(N2C(=O)N(c3c(C)cccc3Cl)Cc3cnc(Nc4ccc(C5CCN(C)CC5)cc4OC)nc32)nc1,"CSNK1G3 (Homo sapiens, UniProt Q9Y6M4)","kinase activity, inhibitor",,"0.5 µM, kinase CK1-GAMMA3",,inhibition,0.92%
CC[C@H](C)[C@H](NC(=O)[C@H](Cc1ccccc1)NC(=O)[C@H](CCC(=O)O)NC(=O)[C@H](CCCNC(=N)N)NC(=O)[C@H](C)NC(=O)[C@H](C)NC(=O)[C@H](CCC(N)=O)NC(=O)[C@H](CCC(=O)O)NC(=O)[C@H](CCC(=O)O)NC(=O)[C@H](CC(C)C)NC(=O)[C@H](Cc1ccc(O)cc1)NC(=O)[C@H](CO)NC(=O)[C@H](CO)NC(=O)[C@@H](NC(=O)[C@H](CC(=O)O)NC(=O)[C@H](CO)NC(=O)[C@@H](NC(=O)[C@H](Cc1ccccc1)NC(=O)[C@@H](NC(=O)CNC(=O)[C@H](CCC(=O)O)NC(=O)[C@H](C)NC(=O)CCc1c[nH]cn1)[C@@H](C)O)[C@@H](C)O)C(C)C)C(=O)N[C@@H](C)C(=O)N[C@@H](Cc1c[nH]c2ccccc12)C(=O)N[C@@H](CC(C)C)C(=O)N[C@H](C(=O)N[C@@H](CCCNC(=N)N)C(=O)NCC(=O)N[C@@H](CCCNC(=N)N)C(=O)N[C@@H](CCCCNC(=O)COCCOCCNC(=O)COCCOCCNC(=O)CC[C@H](NC(=O)CCCCCCCCCCCCCCCCC(=O)O)C(=O)O)C(=O)NCC(=O)NCC(=O)N[C@@H](CO)C(=O)N[C@@H](CCCCNc1c(NCCCCCN(O)C(=O)CCC(=O)NCCCCCN(O)C(=O)CCC(=O)NCCCCCN(O)C(C)=O)c(=O)c1=O)C(=O)O)C(C)C [zirconium-89 labelled],,,"rat, stomach","iv, 3 nmol/kg, 168 h, ex vivo",,tissue uptake,0.17 %ID/g
O=C(c1ccc(Cl)cc1)N1CCN2C(=O)N(OC(=O)N3CCOc4ccccc43)C(=O)C2C1 (stereo not drawn),"PREPL (Homo sapiens, UniProt Q4J6C6)","enzyme activity, inhibitor, MS-based ABPP",SW-620 conditioned medium,"10 µM, 1 h, 37 °C","reference: compound over DMSO, lower = stronger inhibition",median ratio,1.43

# Some of these lines once more:
SMILES,target or system,test,system,setting,how to read,endpoint,result
COc1cc2c(Oc3ccc4[nH]c(C)cc4c3F)ccnc2cc1OCC1(N)CC1,,,paediatric recurrent refractory sarcoma,12 mg,,grade 1 or 2 Thrombocytopenia,18.2%
